Published values from different studies.
Each line is one published result; not all experiments were run side by side.
Sequence of UniProt P06239 (whole entry, looked up): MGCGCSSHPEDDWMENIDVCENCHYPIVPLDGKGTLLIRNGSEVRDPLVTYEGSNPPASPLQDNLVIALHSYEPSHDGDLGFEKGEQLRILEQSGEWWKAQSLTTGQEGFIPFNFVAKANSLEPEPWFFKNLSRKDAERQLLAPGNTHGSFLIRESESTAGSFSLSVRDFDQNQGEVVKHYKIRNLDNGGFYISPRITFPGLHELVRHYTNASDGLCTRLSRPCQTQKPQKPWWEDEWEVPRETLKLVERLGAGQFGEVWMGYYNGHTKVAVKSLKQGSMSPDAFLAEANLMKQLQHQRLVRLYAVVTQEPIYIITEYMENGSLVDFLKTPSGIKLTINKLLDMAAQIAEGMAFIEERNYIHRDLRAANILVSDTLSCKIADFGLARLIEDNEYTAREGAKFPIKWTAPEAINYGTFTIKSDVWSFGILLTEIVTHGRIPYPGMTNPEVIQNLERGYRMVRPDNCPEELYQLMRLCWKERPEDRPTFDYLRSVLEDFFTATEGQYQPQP

Structure (SMILES) = C=CS(=O)(=O)Oc1ccc(OC)c(-c2c[nH]c3ncc(-c4cncc(C(=O)N(C)C)c4)cc23)c1; tested on = BaF3; test = cell growth or viability; quantity = GI50; value = > 1 µM
Structure (SMILES) = COC1CN([C@H]2CC[C@H]([C@@]3(C)Oc4c(Cl)cc(C(=O)NCc5c(SC)cc(C)[nH]c5=O)c(C)c4O3)CC2)C1; test = RNA-seq, refers to: MECOM mouse homolog; test system = mouse, HT-1376 xenograft, whole blood; setting = dose not given; scale = reference: vehicle; quantity = log2 fold change; value = 3.12
Structure (SMILES) = C=CC(=O)Nc1cccc(Cn2ncc3cnc(Nc4cnn(CCOC)c4)nc32)c1; tested on = CDKL1 human; test = binding, KINOMEscan; setting = 100 nM; scale = lower = stronger binding; quantity = percent of control; value = 85%
Structure (SMILES) = CCN(C(=O)c1cc(F)ccc1Oc1nncnc1N1CCC2(C1)CN([C@H](CCCN(C)CCOC)C(C)C)C2)C(C)C; tested on = CLS-439; test = cell growth; setting = 168 h; quantity = GI50; value = > 10 µM
Structure (SMILES) = O=C(Nc1ccc(Sc2ccc3c(/C=C/c4ccccn4)n[nH]c3c2)cc1)Nc1ccc(F)c(F)c1; tested on = BaF3; test = cell growth or viability, CCK-8; quantity = GI50; value = 2.48 µM
Structure (SMILES) = Nc1ncc(-c2cc(-c3cnn(CC(F)(F)F)c3)ncc2F)nc1C(=O)NC1CNCC(F)C1 (stereo not shown); tested on = NIK; test = KINOMEscan competition binding; setting = 1 µM; scale = reference: DMSO control; quantity = remaining binding; value = 100%
Structure (SMILES) = C=CC(=O)Oc1ccc(OC)c(-c2c[nH]c3ncc(-c4cncc(C(=O)N(C)C)c4)cc23)c1; tested on = BaF3; test = cell growth or viability; quantity = GI50; value = > 1 µM
Structure (SMILES) = COc1ncccc1CN(C(=O)OC(c1ccc([N+](=O)[O-])cc1)C(F)(F)F)[C@H]1C[C@@H]1c1ccccc1 (mixture of isomers); tested on = THP-1 wild type cells; test = MTS; setting = 72 h; quantity = GI50; value = > 50 µM
Structure (SMILES) = Cc1nn(-c2cccc(N)c2)c(=O)c2cnc(Nc3ccc(N4CCNCC4)cc3)nc12; tested on = Tyrosine-protein kinase Lck (LCK, Homo sapiens, UniProt P06239); test = enzyme activity, inhibitor; quantity = IC50; value = 981 nM
Structure (SMILES) = COc1ccccc1C(=O)NCC(=O)Nc1ccc2[nH]nc(/C=C/c3ccccn3)c2c1; tested on = BaF3; test = cell growth or viability, CCK-8; quantity = GI50; value = > 10 µM
Structure (SMILES) = COc1ncccc1CN(C(=O)OCc1ccc([N+](=O)[O-])s1)[C@H]1C[C@@H]1c1ccccc1 (racemic); tested on = THP-1 wild type cells; test = MTS; setting = 72 h; quantity = GI50; value = > 50 µM
Structure (SMILES) = COc1cccc(C(=O)Nc2ccc(Sc3ccc4c(/C=C/c5ccccn5)n[nH]c4c3)cc2)c1; tested on = BaF3; test = cell growth or viability, CCK-8; quantity = GI50; value = 3.73 µM
Structure (SMILES) = COc1ncccc1CN(C(=O)OCc1ccc([N+](=O)[O-])cc1)[C@H]1C[C@@H]1c1ccccc1 (racemic); tested on = THP-1 wild type cells; test = MTS; setting = 72 h; quantity = GI50; value = > 50 µM

Repeated from above:
Structure (SMILES) = COc1ncccc1CN(C(=O)OC(c1ccc([N+](=O)[O-])cc1)C(F)(F)F)[C@H]1C[C@@H]1c1ccccc1 (mixture of isomers); tested on = THP-1 wild type cells; test = MTS; setting = 72 h; quantity = GI50; value = > 50 µM
